Results from different studies.
± marks the error that the study gave.

N=C(N)NCCC[C@@H]1NC(=O)[C@H](CCCCNC(=O)CC[C@H](NC(=O)CCOCCOCCOCCOCCNC(=O)CC[C@H](NC(=O)CN2CCN(CC(=O)O)CCN(CC(=O)O)CCN(CC(=O)O)CC2)C(=O)NCCOCCOCCOCCOCCC(=O)N[C@@H](CCC(=O)NCCCC[C@@H]2NC(=O)[C@@H](Cc3ccccc3)NC(=O)[C@H](CC(=O)O)NC(=O)CNC(=O)[C@H](CCCNC(=N)N)NC2=O)C(=O)NCCCC[C@@H]2NC(=O)[C@@H](Cc3ccccc3)NC(=O)[C@H](CC(=O)O)NC(=O)CNC(=O)[C@H](CCCNC(=N)N)NC2=O)C(=O)NCCCC[C@@H]2NC(=O)[C@@H](Cc3ccccc3)NC(=O)[C@H](CC(=O)O)NC(=O)CNC(=O)[C@H](CCCNC(=N)N)NC2=O)NC(=O)[C@@H](Cc2ccccc2)NC(=O)[C@H](CC(=O)O)NC(=O)CNC1=O [indium-111 labelled] — log P (octanol/water): -3.87 ± 0.11
CCCC[C@H](NC(=O)CNC(=O)CNC(=O)c1ccc(NN)nc1)C(=O)N[C@H]1CC(=O)NCCCC[C@@H](C(N)=O)NC(=O)[C@H](Cc2c[nH]c3ccccc23)NC(=O)[C@H](CCCNC(=N)N)NC(=O)[C@@H](Cc2ccccc2)NC(=O)[C@H](Cc2c[nH]cn2)NC1=O [technetium-99m labelled] — tissue uptake (C57 mouse, B16/F1 melanoma, urine; 2 h, with: NDP-MSH 6.07 nmol): 94.9 ± 1.39 %ID
CCCC[C@H](NC(=O)CCCCCCCNC(=O)c1ccc(NN)nc1)C(=O)N[C@H]1CC(=O)NCCCC[C@@H](C(N)=O)NC(=O)[C@H](Cc2c[nH]c3ccccc23)NC(=O)[C@H](CCCNC(=N)N)NC(=O)[C@@H](Cc2ccccc2)NC(=O)[C@H](Cc2c[nH]cn2)NC1=O [technetium-99m labelled] — uptake (C57 mouse, B16/F1 melanoma, bone; intravenous, 4 h): 0.19 ± 0.15 %ID/g
CC(C)C[C@H](NC(=O)[C@@H]1CCCN1C(=O)[C@H](CCCCN)NC(=O)[C@@H](N)CO)C(=O)N1CCC[C@H]1C(=O)N[C@@H](CCC(=O)O)C(=O)N[C@H](C(=O)N[C@H](C(=O)N[C@@H](CC(=O)O)C(=O)N[C@@H](CCC(=O)O)C(=O)N[C@@H](Cc1ccc(O)cc1)C(=O)N[C@@H](Cc1cn(CCOCCOCCOCCNC(=O)CCc2ccc(O)c(CN(CCN(CC(=O)O)Cc3cc(CCC(=O)NCCCC[C@H](NC(=O)N[C@@H](CCC(=O)O)C(=O)O)C(=O)O)ccc3O)CC(=O)O)c2)nn1)C(=O)O)[C@@H](C)O)C(C)C [gallium-68 labelled] — standardized uptake value (NMRI nu/nu mice, LNCaP tumour, heart; 135.34 nmol/kg, low molar activity): 0.05 g/g
N=C(N)NCCC[C@@H]1NC(=O)[C@H](CCCCNC(=O)CCc2cn(CCC[C@@H]3O[C@H](COC(=O)NCCNC(=O)CN4CCN(CC(=O)O)CCN(CC(=O)O)CCN(CC(=O)O)CC4)[C@@H](O)[C@H](O)[C@H]3O)nn2)NC(=O)[C@@H](Cc2ccccc2)NC(=O)[C@H](CC(=O)O)NC(=O)CNC1=O [gallium-68 labelled] — plasma half-life (rodent plasma; 37 °C): > 2 h
CC(C)C[C@@H]1NC(=O)[C@H](C(C)C)NC(=O)[C@H](CO)NC(=O)CNC(=O)CNC(=O)[C@H](CCCNC(=N)N)NC(=O)[C@@H]2CCCN2C(=O)[C@@H](NC(=O)CC[C@H](NC(=O)c2ccc(N(C)Cc3cnc4nc(N)nc(N)c4n3)cc2)C(=O)O)C(C)(C)SSC[C@@H](C(=O)O)NC(=O)CNC(=O)[C@H]([C@@H](C)O)NC(=O)[C@H](C(C)C)NC1=O — half-life (chemical stability; NaOH solution; 100 µM, pH 12.0, 70 °C): 9.29 h
CSCC[C@H](NC(=O)[C@H](CC(C)C)NC(=O)[C@H](Cc1c[nH]cn1)NC(=O)CNC(=O)[C@@H](NC(=O)[C@H](C)NC(=O)[C@H](Cc1c[nH]c2ccccc12)NC(=O)[C@H](CCC(N)=O)NC(=O)CCCCCNC(=O)CNC(=O)CNC(=O)CNC(=O)CSC(C)=O)C(C)C)C(N)=O [technetium-99m labelled] — tissue uptake (nude mouse, PC-3 xenograft, stomach; 30 min, with: excess unlabelled conjugate): 0.9 ± 0.2 %ID/g
CC[C@H](C)[C@@H]([C@@H](CC(=O)N1CCC[C@H]1[C@H](OC)[C@@H](C)C(=O)N[C@H](C)[C@@H](O)c1ccccc1)OC)N(C)C(=O)[C@@H](NC(=O)[C@H](C(C)C)N(C)C(=O)OCc1ccc(NC(=O)[C@H](CCCNC(N)=O)NC(=O)[C@@H](NC(=O)CCCc2cn(CC(=O)N[C@@H](CCCCNC(=O)CC[C@H](NC(=O)c3ccc(NCc4cnc5nc(N)[nH]c(=O)c5n4)cc3)C(=O)O)C(=O)NCCCC[C@H]3NC(=O)[C@H](CCCCN)NC(=O)[C@H](CCCNC(N)=O)NC(=O)[C@H](Cc4ccc(O)cc4)NC(=O)[C@@H](NC(=O)[C@H](Cc4ccc5ccccc5c4)NC(=O)[C@H](CCCNC(=N)N)NC(=O)[C@@H](N)CCCNC(=N)N)CSSC[C@@H](C(=O)N[C@@H](CCCNC(=N)N)C(N)=O)NC(=O)[C@H](CCCNC(N)=O)NC(=O)[C@H](CCCNC(=N)N)NC(=O)[C@H](Cc4ccc(O)cc4)NC(=O)[C@@H]4CCCN4C3=O)nn2)C(C)C)cc1)C(C)C — half-life (mouse serum; 0.5 mmol/L, 37 °C): 16.9 h
N=C(N)NCCC[C@@H]1NC(=O)[C@H](CCCCNC(=O)CCOCCOCCOCCOCCNC(=O)CN2CCN(CC(=O)O)CCN(CC(=O)O)CCN(CC(=O)O)CC2)NC(=O)[C@@H](Cc2ccccc2)NC(=O)[C@H](CC(=O)O)NC(=O)CNC1=O [indium-111 labelled] — tissue uptake (athymic nude mice, female, U-87 MG glioma xenograft, spleen; intravenous, 3 µCi, 72 h): 0.37 ± 0.05 %ID/g
N=C(N)NCCC[C@@H]1NC(=O)[C@H](CCCCNC(=O)CNC(=O)CNC(=O)CNC(=O)c2ccc(NN=Cc3ccccc3S(=O)(=O)O)nc2)NC(=O)[C@@H](Cc2ccccc2)NC(=O)[C@H](CC(=O)O)NC(=O)CNC1=O [technetium-99m labelled] — log P (shake-flask; n-octanol/phosphate buffer; pH 7.4): -4.4 ± 0.19
N=C(N)NCCC[C@@H]1NC(=O)[C@H](CCCCNC(=O)CC[C@H](NC(=O)CCOCCOCCOCCOCCNC(=O)CN2CCN(CC(=O)O)CCN(CC(=O)O)CCN(CC(=O)O)CC2)C(=O)NCCCC[C@@H]2NC(=O)[C@@H](Cc3ccccc3)NC(=O)[C@H](CC(=O)O)NC(=O)CNC(=O)[C@H](CCCNC(=N)N)NC2=O)NC(=O)[C@@H](Cc2ccccc2)NC(=O)[C@H](CC(=O)O)NC(=O)CNC1=O [indium-111 labelled] — tumour to tissue ratio (athymic nude mice, female, U-87 MG glioma xenograft, tumour and lungs; intravenous, 0.5 h; reference: tumour over lungs): 2.04 ± 0.37
Cc1ncsc1-c1ccc(CNC(=O)[C@@H]2C[C@@H](OC(=O)OCCSSCCn3cc(CCCC(=O)N[C@@H](Cc4ccc(O)cc4)C(=O)N[C@@H](CCCNC(=N)N)C(=O)N[C@@H](CCCNC(=N)N)C(=O)N[C@@H](CCCNC(=N)N)C(=O)N[C@@H](CCCNC(=N)N)C(=O)N[C@@H](CCCNC(=N)N)C(=O)N[C@@H](CCCNC(=N)N)C(=O)N[C@@H](CCCNC(=N)N)C(=O)N[C@@H](CCCNC(=N)N)C(=O)N[C@@H](CCCNC(=N)N)C(N)=O)nn3)CN2C(=O)[C@@H](NC(=O)COCCOCCOCCNC(=O)C[C@@H]2N=C(c3ccc(Cl)cc3)c3c(sc(C)c3C)-n3c(C)nnc32)C(C)(C)C)cc1 — remaining intact compound (UHPLC; PBS; 100 nM, 2 h, 37 °C, with: 5 mM glutathione; reference: total peak area): 0%
C[C@@H](O)[C@H](NC(=O)[C@@H]1CSSC[C@H](NC(=O)[C@@H](Cc2ccccc2)NC(=O)CN2CCCN3CCN(CCCN(CP(=O)(O)O)CC3)CC2)C(=O)N[C@@H](Cc2ccc(O)cc2)C(=O)N[C@H](Cc2c[nH]c3ccccc23)C(=O)N[C@@H](CCCCN)C(=O)N[C@@H]([C@@H](C)O)C(=O)N1)C(=O)O [copper-64 labelled] — activity cleared from tumour (male Lewis rat, AR-42J tumour-bearing; dose not given, 1 to 24 h): 72%
N=C(N)NCCC[C@@H]1NC(=O)[C@H](CCCCNC(=O)CCOCCOCCOCCOCCNC(=O)CC[C@H](NC(=O)CCOCCOCCOCCOCCNC(=O)CC[C@H](NC(=O)CN2CCN(CC(=O)O)CCN(CC(=O)O)CCN(CC(=O)O)CC2)C(=O)NCCOCCOCCOCCOCCC(=O)N[C@@H](CCC(=O)NCCOCCOCCOCCOCCC(=O)NCCCC[C@@H]2NC(=O)[C@@H](Cc3ccccc3)NC(=O)[C@H](CC(=O)O)NC(=O)CNC(=O)[C@H](CCCNC(=N)N)NC2=O)C(=O)NCCOCCOCCOCCOCCC(=O)NCCCC[C@@H]2NC(=O)[C@@H](Cc3ccccc3)NC(=O)[C@H](CC(=O)O)NC(=O)CNC(=O)[C@H](CCCNC(=N)N)NC2=O)C(=O)NCCOCCOCCOCCOCCC(=O)NCCCC[C@@H]2NC(=O)[C@@H](Cc3ccccc3)NC(=O)[C@H](CC(=O)O)NC(=O)CNC(=O)[C@H](CCCNC(=N)N)NC2=O)NC(=O)[C@@H](Cc2ccccc2)NC(=O)[C@H](CC(=O)O)NC(=O)CNC1=O [indium-111 labelled] — tissue uptake (female athymic nude mice, kidney; intravenous, 3 µCi, 1 h, U-87 MG glioma xenograft): 7.21 ± 0.79 %ID/g
CCCC[C@H]1C(=O)NCC(=O)N[C@@H](CC(=O)O)C(=O)N[C@@H](C(C)C)C(=O)N(C)[C@@H](Cc2ccccc2)C(=O)N[C@@H](Cc2ccc(O)cc2)C(=O)N(C)CC(=O)N[C@@H](Cc2c[nH]c3ccccc23)C(=O)N[C@@H](Cc2ccc(O)cc2)C(=O)N[C@@H](CC(C)C)C(=O)N[C@H](C(=O)NCC(=O)N[C@@H](CCCCNC(=O)CN2CCN(CC(=O)O)CCN(CC(=O)O)CCN(CC(=O)O)CC2)C(N)=O)CSCC(=O)N[C@@H](Cc2ccccc2)C(=O)N(C)[C@@H](Cc2ccccc2)C(=O)N1C [gallium-68 labelled] — protein-bound radioactivity (human serum; concentration not given, 90 min, 37 °C): > 50%

For quick reference, copied from above:
N=C(N)NCCC[C@@H]1NC(=O)[C@H](CCCCNC(=O)CCOCCOCCOCCOCCNC(=O)CN2CCN(CC(=O)O)CCN(CC(=O)O)CCN(CC(=O)O)CC2)NC(=O)[C@@H](Cc2ccccc2)NC(=O)[C@H](CC(=O)O)NC(=O)CNC1=O [indium-111 labelled] — tissue uptake (athymic nude mice, female, U-87 MG glioma xenograft, spleen; intravenous, 3 µCi, 72 h): 0.37 ± 0.05 %ID/g
